Experimental data collected from several papers.
Each line is one published result; not all experiments were run side by side. Numbers after ± are the reported error. In brackets after ≈: the same amount, converted by molar mass.

The chains behind the UniProt entries cited, without tags or fusion partners.
UniProt P51813, whole entry: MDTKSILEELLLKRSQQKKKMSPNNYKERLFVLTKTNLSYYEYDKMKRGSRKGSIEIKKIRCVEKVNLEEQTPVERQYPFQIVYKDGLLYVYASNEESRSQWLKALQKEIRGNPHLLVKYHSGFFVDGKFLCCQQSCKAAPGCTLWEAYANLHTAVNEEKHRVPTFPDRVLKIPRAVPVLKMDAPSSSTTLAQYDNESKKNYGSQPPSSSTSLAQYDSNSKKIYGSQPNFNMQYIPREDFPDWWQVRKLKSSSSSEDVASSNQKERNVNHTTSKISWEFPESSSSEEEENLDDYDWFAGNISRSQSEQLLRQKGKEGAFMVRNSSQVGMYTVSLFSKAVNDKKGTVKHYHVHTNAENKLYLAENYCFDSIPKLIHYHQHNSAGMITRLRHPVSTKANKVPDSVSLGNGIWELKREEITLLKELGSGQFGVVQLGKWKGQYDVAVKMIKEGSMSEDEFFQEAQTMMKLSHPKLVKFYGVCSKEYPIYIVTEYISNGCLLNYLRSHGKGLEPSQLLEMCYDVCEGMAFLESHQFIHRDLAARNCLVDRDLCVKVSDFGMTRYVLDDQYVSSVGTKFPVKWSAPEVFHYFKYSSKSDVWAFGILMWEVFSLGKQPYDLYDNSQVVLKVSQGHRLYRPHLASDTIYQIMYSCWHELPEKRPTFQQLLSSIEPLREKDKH
UniProt Q9P1W9, whole entry: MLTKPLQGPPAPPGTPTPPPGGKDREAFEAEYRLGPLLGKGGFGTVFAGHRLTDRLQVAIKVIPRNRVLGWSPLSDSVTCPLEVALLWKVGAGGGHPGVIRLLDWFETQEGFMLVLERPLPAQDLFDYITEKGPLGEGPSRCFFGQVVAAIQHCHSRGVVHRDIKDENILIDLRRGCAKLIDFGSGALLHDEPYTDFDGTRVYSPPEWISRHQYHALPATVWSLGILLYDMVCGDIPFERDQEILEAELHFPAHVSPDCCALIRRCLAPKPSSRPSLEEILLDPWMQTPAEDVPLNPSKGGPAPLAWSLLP

COc1ccc(Nc2cc(C)c3cc(NC(=O)c4ccc(N(C)C)cc4)ccc3n2)cc1
inhibition (vesicular stomatitis virus; viral replication; VSV-eGFP; concentration not given): 5%

N=C(N)NCCC[C@H](NC(=O)[C@H](CCCNC(=N)N)NC(=O)[C@H](Cc1c[nH]c2ccccc12)NC(=O)[C@H](Cc1c[nH]c2ccccc12)NC(=O)[C@H](CCCCN)NC(=O)[C@H](Cc1c[nH]c2ccccc12)NC(=O)[C@H](Cc1c[nH]c2ccccc12)NC(=O)[C@H](CCCNC(=N)N)NC(=O)[C@@H](N)CCCCN)C(N)=O
MIC (Mycobacterium bovis; TMC 1012, 7H9 broth; 48 h, 37 °C, with: sodium pyruvate 40 mM): 20 µM

O=c1oc(-c2ccco2)ns1
reduction in viable count (Mycobacterium bovis BCG; 25 µM): 1 log CFU

O=c1ccc2nc3ccc(OCc4ccccc4)cc3oc-2c1I
MIC90 (Mycobacterium tuberculosis; mc2 6206 bedaquiline-resistant MmpL5 regulator mutant; 7 days): > 256 µM

EDDHA
MIC80 (Cryptococcus neoformans; alone): 12.5 µM

CC#C/C(=N\OC[C@H]1COCCN1)c1ccc2ncnc(Nc3ccc(OCc4cccc(F)c4)c(Cl)c3)c2c1
inhibition (BMX (Homo sapiens, UniProt P51813); kinase activity; 10 µM): 40.6%

COC(=O)COc1ccc2nc3ccc(=O)cc-3oc2c1
MIC90 (Mycobacterium tuberculosis; mc2 6206 clofazimine-resistant fbiC mutant; 7 days): 55 µM (≈ 15.7 µg/mL)

CC(C)[C@H](NC(=O)[C@H](Cc1c[nH]c2ccccc12)NC(=O)[C@H](CCCNC(=N)N)NC(=O)[C@H](Cc1c[nH]c2ccccc12)NC(=O)[C@H](Cc1c[nH]c2ccccc12)NC(=O)[C@H](CCCNC(=N)N)NC(=O)[C@@H](N)CCCNC(=N)N)C(=O)N[C@H](C(=O)N[C@@H](Cc1c[nH]c2ccccc12)C(N)=O)C(C)C
MIC (Mycobacterium bovis; TMC 1012, 7H9 broth; 48 h, 37 °C, with: sodium pyruvate 40 mM): 10 µM

O=c1ccc2nc3ccc(OCc4ccc([N+](=O)[O-])o4)cc3oc-2c1
MIC90 (Mycobacterium tuberculosis; mc2 6206 PA-824-resistant ddn mutant; 7 days): 0.25 µM (≈ 0.0846 µg/mL)

CCN1CCN(Cc2ccc(NC(=O)c3ccc(C)c(/C=C/c4cnc5[nH]ccc5c4OC)c3)cc2C(F)(F)F)CC1
log2 fold change (PIM2 (Homo sapiens, UniProt Q9P1W9); inhibitor; 5 µM; relative to: no inhibitor): 0.39

Nc1ccc(C(=O)O)c(O)c1
MIC50 (Mycobacterium bovis; BCG Tac^r10.2, thyA W98R missense; TA-C-resistant thyA mutant): > 100 µM

CC(=O)N1C[C@@H](COP(=O)(N(C)C)N2C[C@@H](COP(=O)(N(C)C)N3C[C@@H](COP(=O)(N(C)C)N4C[C@@H](COP(=O)(N(C)C)N5C[C@@H](COP(=O)(N(C)C)N6C[C@@H](COP(=O)(N(C)C)N7C[C@@H](COP(=O)(N(C)C)N8C[C@@H](COP(=O)(N(C)C)N9C[C@@H](COP(=O)(N(C)C)N%10C[C@@H](COP(=O)(N(C)C)N%11C[C@@H](COP(=O)(N(C)C)N%12C[C@@H](COP(=O)(N(C)C)N%13C[C@@H](COP(=O)(N(C)C)N%14C[C@@H](COP(=O)(N(C)C)N%15C[C@@H](COP(=O)(N(C)C)N%16C[C@@H](COP(=O)(N(C)C)N%17C[C@@H](COP(=O)(N(C)C)N%18C[C@@H](COP(=O)(N(C)C)N%19C[C@@H](COP(=O)(N(C)C)N%20C[C@@H](COP(=O)(N(C)C)N%21C[C@@H](COP(=O)(N(C)C)N%22C[C@@H](COP(=O)(N(C)C)N%23C[C@@H](COP(=O)(N(C)C)N%24CCN(C(=O)CCCN%25C(=O)CC(SC[C@H](NC(=O)[C@H](CCCNC(=N)N)NC(=O)[C@H](CCCNC(=N)N)NC(=O)[C@H](CCCNC(=N)N)NC(=O)[C@H](CCCNC(=N)N)NC(=O)[C@H](Cc%26ccccc%26)NC(=O)[C@H](Cc%26ccccc%26)NC(=O)[C@H](CCCNC(=N)N)NC(=O)[C@H](CCCNC(=N)N)NC(=O)[C@H](CCCNC(=N)N)NC(=O)[C@H](CCCNC(=N)N)NC(=O)[C@@H](N)CCCNC(=N)N)C(N)=O)C%25=O)CC%24)O[C@@H](n%24cnc%25c(=O)[nH]c(N)nc%25%24)C%23)O[C@@H](n%23cc(C)c(=O)[nH]c%23=O)C%22)O[C@@H](n%22ccc(N)nc%22=O)C%21)O[C@@H](n%21cnc%22c(N)ncnc%22%21)C%20)O[C@@H](n%20cc(C)c(=O)[nH]c%20=O)C%19)O[C@@H](n%19ccc(N)nc%19=O)C%18)O[C@@H](n%18cc(C)c(=O)[nH]c%18=O)C%17)O[C@@H](n%17cc(C)c(=O)[nH]c%17=O)C%16)O[C@@H](n%16cnc%17c(=O)[nH]c(N)nc%17%16)C%15)O[C@@H](n%15ccc(N)nc%15=O)C%14)O[C@@H](n%14cnc%15c(=O)[nH]c(N)nc%15%14)C%13)O[C@@H](n%13ccc(N)nc%13=O)C%12)O[C@@H](n%12ccc(N)nc%12=O)C%11)O[C@@H](n%11cnc%12c(N)ncnc%12%11)C%10)O[C@@H](n%10cc(C)c(=O)[nH]c%10=O)C9)O[C@@H](n9cc(C)c(=O)[nH]c9=O)C8)O[C@@H](n8cc(C)c(=O)[nH]c8=O)C7)O[C@@H](n7cc(C)c(=O)[nH]c7=O)C6)O[C@@H](n6cc(C)c(=O)[nH]c6=O)C5)O[C@@H](n5cnc6c(=O)[nH]c(N)nc65)C4)O[C@@H](n4cc(C)c(=O)[nH]c4=O)C3)O[C@@H](n3cnc4c(=O)[nH]c(N)nc43)C2)O[C@@H](n2cnc3c(=O)[nH]c(N)nc32)C1 (stereo partly drawn)
LANA protein level (Kaposi's sarcoma-associated herpesvirus; Western blot; BCBL1 cells; concentration not given; relative to: mock-treated): no effect

O=c1ccc2ccc(OCc3ccc([N+](=O)[O-])o3)cc2o1
MIC90 (Mycobacterium tuberculosis; mc2 6206 clofazimine-resistant fbiC mutant; 7 days): > 256 µM

Cc1cc2c(c(=S)[nH]1)C(=O)O/C2=C\c1c[nH]c2ccc(F)cc12
EC50 (Influenza A virus; viral replication, CPE, MTT; MDCK, A/Hong Kong/8/68 (H3N2); 72 h): 17.4 ± 6.3 µM

CO[C@H]1/C=C/O[C@@]2(C)Oc3c(C)c(O)c4c(O)c(c(/C=N/N5CCN(C)CC5)c(O)c4c3C2=O)NC(=O)/C(C)=C\C=C\[C@H](C)[C@H](O)[C@@H](C)[C@@H](O)[C@@H](C)[C@H](OC(C)=O)[C@@H]1C
MIC50 (Mycobacterium bovis; BCG Tac^r7.1, thyA mutant; TA-C-resistant thyA mutant): 0.0016 µM (≈ 0.00132 µg/mL)

COc1cc(C(=O)NS(=O)(=O)c2ccccc2C)ccc1Cc1cn(C)c2ccc(NC(=O)OC3CCCC3)cc12
inhibition (vesicular stomatitis virus; viral replication; VSV-eGFP; concentration not given): 12%

O=c1oc(-c2ccccn2)ns1
reduction in viable count (Mycobacterium bovis BCG; 25 µM): 1 log CFU

CCOc1ccc2nc3ccc(=O)cc-3oc2c1
MIC90 (Mycobacterium tuberculosis; mc2 6206 bedaquiline-resistant MmpL5 regulator mutant; 7 days): 33 µM (≈ 7.96 µg/mL)

CC[C@H](C)[C@H](NC(=O)[C@H](Cc1ccc(O)cc1)NC(=O)[C@H](CO)NC(=O)[C@H](CCC(=O)O)NC(=O)[C@H](CCC(=O)O)NC(=O)[C@H](CC(C)C)NC(=O)[C@H](CCCCN)NC(=O)[C@H](CCCCN)NC(=O)[C@@H](NC(=O)[C@@H](NC(=O)[C@H](CCC(=O)O)NC(=O)[C@H](CCC(=O)O)NC(=O)[C@H](CC(C)C)NC(=O)[C@H](CCCCN)NC(=O)[C@H](CCCCN)NC(=O)[C@H](CCSC)NC(=O)[C@H](CCC(=O)O)NC(=O)[C@H](Cc1ccc(O)cc1)NC(=O)[C@H](CCC(=O)O)NC(=O)[C@H](CC(C)C)NC(=O)[C@H](CC(=O)O)NC(=O)[C@H](CC(C)C)NC(=O)[C@H](CC(C)C)NC(=O)[C@@H](NC(=O)[C@@H](NC(=O)[C@H](CC(N)=O)NC(=O)[C@@H](NC(=O)[C@H](CCC(N)=O)NC(=O)[C@@H](NC(=O)[C@H](CC(C)C)NC(=O)[C@H](CO)NC(C)=O)[C@@H](C)O)[C@@H](C)CC)[C@@H](C)O)[C@@H](C)O)C(C)C)C(C)C)C(=O)N[C@@H](CC(=O)O)C(=O)N[C@@H](CC(C)C)C(=O)N[C@@H](CCCCN)C(=O)N[C@@H](CCC(=O)O)C(=O)N[C@@H](CC(C)C)C(N)=O
EC50 (influenza A virus; viral replication; MDCK, A/Hong Kong/8/68 H3N2; 72 h): > 20 µM

O=c1ccc2nc3ccc(OCc4ccc([N+](=O)[O-])o4)cc3oc-2c1I
MIC90 (Mycobacterium tuberculosis; mc2 6206, ddn mutant, PA-824-resistant): no effect

CCC(C)C1NC(=O)/C(=C(/C)O)C1=O (stereo not drawn)
root length reduction (Arabidopsis thaliana; Col-0, seedlings on agar; 2.5 µM, 6 d; relative to: untreated seedlings): 1.6 cm

O=c1ccc2nc3ccc(OCC4(CO)COC4)cc3oc-2c1
MIC90 (Mycobacterium tuberculosis; mc2 6206 clofazimine-resistant fbiC mutant; 7 days): > 256 µM

NNC(=O)c1ccncc1
MIC50 (Mycobacterium bovis; BCG Tac^r7.1, thyA A148E missense; TA-C-resistant thyA mutant): 0.4 µM (≈ 0.0549 µg/mL)

O=[N+]([O-])c1ccc(N2CCN(c3ccc([N+](=O)[O-])cc3[N+](=O)[O-])CC2)c([N+](=O)[O-])c1
MIC (Escherichia coli; multidrug-resistant): > 500 µg/mL

Cn1c(COc2ccc3nc4ccc(=O)cc-4oc3c2)cnc1[N+](=O)[O-]
MIC90 (Mycobacterium tuberculosis; mc2 6206 clofazimine-resistant fbiC mutant; 7 days): > 256 µM

O=[N+]([O-])c1cn2c(n1)OC[C@@H](OCc1ccc(OC(F)(F)F)cc1)C2
MIC50 (Mycobacterium bovis; BCG Tac^r10.2, thyA W98R missense; TA-C-resistant thyA mutant): 0.2 µM (≈ 0.0719 µg/mL)

CC1(C)CCC(Cc2cc(O)c(-c3ccccc3)c(=O)[nH]2)CC1
resistance frequency (Mycobacterium bovis; BCG; concentration not given): 1e-08 per cell

Repeated from above:
Nc1ccc(C(=O)O)c(O)c1
MIC50 (Mycobacterium bovis; BCG Tac^r10.2, thyA W98R missense; TA-C-resistant thyA mutant): > 100 µM
